# Measured values collected from several papers.
# Parts stem from different laboratories: compare values within a part only.

# Sample 1
# Target: RING finger protein unkempt homolog, zinc fingers 1-6, GST-SBP tag (UNK, Homo sapiens, UniProt Q9C0B0, residues 30-357)
# Method: RNA Bind-n-Seq
# Molecule type: RNA
# Medium: in vitro
# Concentration: not given
# Notes: RNA with constant flanks, human-mouse chimeric sites, ends assumed
# Relative to: input RNA pool
# Direction: higher = stronger binding
# Residues (chain): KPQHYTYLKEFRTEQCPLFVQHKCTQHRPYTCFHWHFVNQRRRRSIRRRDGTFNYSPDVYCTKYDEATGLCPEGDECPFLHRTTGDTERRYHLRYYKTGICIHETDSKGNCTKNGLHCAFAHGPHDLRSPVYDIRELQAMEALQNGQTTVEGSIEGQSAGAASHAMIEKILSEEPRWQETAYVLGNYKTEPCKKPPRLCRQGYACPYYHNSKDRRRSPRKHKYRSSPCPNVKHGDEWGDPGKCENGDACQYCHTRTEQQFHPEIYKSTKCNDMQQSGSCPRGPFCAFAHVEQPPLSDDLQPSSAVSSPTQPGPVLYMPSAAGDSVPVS
Oligonucleotide,bound/input enrichment
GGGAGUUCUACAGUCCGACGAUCAGCACAACCCCAGCAAAGCUAAGAAAUCCUUGUACAAGUGAACAGAACUGCACCAGCCCAUUUAGCUACAAAAAUGUGCUUAGUCUUACUGACAGAGGAGAGUUUUUCAAUGAACUUGUUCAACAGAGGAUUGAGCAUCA,1.06 ratio
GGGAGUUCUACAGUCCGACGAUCGUGCCCUUCUCGCUGCUGCGGAGCCCGAGCUGGGAACCAUUCCGGGACGACUGGUACGCACACAGCCGCCUCUUCGAUCAAGCUUUCGGGGUGCCCCGGCUGCCGGAUGAGUGGUCGCAGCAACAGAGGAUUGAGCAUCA,0.0759 ratio
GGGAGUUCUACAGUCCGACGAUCUGGCGCCUCCCAUUUUUACUCGUGUUUUUAAGUGUAUAAGAUGUAUAUACAUGUAUUUACAAUUGAGCUUUUGUUACAUAAUGCUGAAAUGCUACUGGAGAUUAUGAAAAAUGUUUCAAUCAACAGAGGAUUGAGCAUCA,0.133 ratio
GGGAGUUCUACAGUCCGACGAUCAGAGAAAUGAGAAAGAAUCUCACACAAGAAGAGAUGCAAAGAAUGUCUACUAGAGUCCUUUUAGCCACUCUUUCCAUUCCUAUUACUCCUGAGCGAACUGAUAUUGCUCGACUUUUGGAUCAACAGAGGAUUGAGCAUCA,0.081 ratio
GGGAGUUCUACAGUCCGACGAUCCUGGGUAUCAUCUCUCGUGCUGUUAGACACCUGUUCAAGAGUAUUGAUGAGAAAAAGACCUCAGCGAUUAAAAACGGGCUUCCUGCUCCUGAAUUCAAAGUGAAUGCCCAGUUCCUAGAGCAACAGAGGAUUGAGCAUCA,0.159 ratio
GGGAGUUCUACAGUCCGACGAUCGCCACCAGAUCCCAGAAACAUGACCCUUGCUGCCUACAAAGAGAAGAUGAAGGAGCUCCCGCUGGUGUCCUUGUUCUGCUCUUGCUUCCUGGCCGAUCCCCUGAAUAAAUCAUCCUACAACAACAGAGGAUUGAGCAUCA,0.279 ratio
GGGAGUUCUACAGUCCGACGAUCGCUCUUGGGAAUGUAAUCAGCGCCUUGGGGGACAAGAGCAAGAGAGCCACCCAUGUCCCCUAUAGAGACUCUAAGCUAACAAGACUAUUGCAGGAUUCCCUUGGGGGUAACAGCCAAACCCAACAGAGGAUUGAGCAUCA,0.204 ratio
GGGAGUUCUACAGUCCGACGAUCCAUGUAUCUGCAGUACUUGAUGUGGACUACUCUCCCACUGGGAAGGAAUUUGUGUCUGCCAGCUUUGAUAAGUCUAUUAGAAUCUUUCCUGUGGACAAAAGUCGAAGCAGGGAAGUGUAUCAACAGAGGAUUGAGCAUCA,0.592 ratio
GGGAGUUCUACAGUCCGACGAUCAACUUCGUACAUAGAUUUCCCUUUGUAGCUGUUUCAAUUGGCUUUGCUGUGAAUAAAGAGAUGGAGUUUGGAAUUGUGUACAGCUGUGUGGAAGAUAAGAUGUACACCGGCAGGAAAGGGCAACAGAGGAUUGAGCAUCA,1.15 ratio
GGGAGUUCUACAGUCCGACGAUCGGCUGCUGGUGACUGUCGGGAGCCGUCUGGAGUUCCCGCCGGAGCGCGGCCAGACUAAUUUUAGAAAAUGCCAAGUAGGAAGUUUGUUGAGGGUGAAGUGGUAAGAGGCCGAUGGCCUGGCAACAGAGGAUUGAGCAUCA,3.36 ratio
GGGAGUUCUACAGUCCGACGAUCUAAAUUAGCCAGCACCACCGUUCUCACUCCCUGGGCUGCGGAAAGCCAGAAGAUUUUAUCUAGCUUAUACAAGGCUGCUGGUGUUCCCUCUUUUUUUCCACGAGGGUGUUUUUGGCUGCACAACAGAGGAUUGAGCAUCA,0.69 ratio

# Sample 2
# Target: Centromere-binding protein 1, full length, His-tagged (CBF1, Saccharomyces cerevisiae, UniProt P17106, residues 1-351)
# Sequence of UniProt P17106 (whole entry, looked up): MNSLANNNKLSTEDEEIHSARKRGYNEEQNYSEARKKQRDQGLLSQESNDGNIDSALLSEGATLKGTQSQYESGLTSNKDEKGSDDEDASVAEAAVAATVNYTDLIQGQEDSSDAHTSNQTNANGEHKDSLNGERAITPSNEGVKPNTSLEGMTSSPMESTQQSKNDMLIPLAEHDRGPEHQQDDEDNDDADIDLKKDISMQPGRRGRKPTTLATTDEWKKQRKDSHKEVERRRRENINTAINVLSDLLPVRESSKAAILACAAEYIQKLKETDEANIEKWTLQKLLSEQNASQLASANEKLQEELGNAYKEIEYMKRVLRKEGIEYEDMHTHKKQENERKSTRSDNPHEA
# Method: competition protein-binding microarray
# Molecule type: double-stranded DNA, one strand shown
# Medium: in vitro
# Concentration: 2 µM
# Notes: whole 60-bp probe, lowest competitor level
# Added: Pho4 competitor, 0.05 µM
# Direction: higher = stronger binding
Oligonucleotide,fluorescence intensity
CATACCCAACCTTGACTAGTGGGTGAAGATATTTGTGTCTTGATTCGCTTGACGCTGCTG,66.9 a.u.
ATTTTCTTGGTCGACCACGTGCCGACCTTAAAGCAGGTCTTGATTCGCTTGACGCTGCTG,2770 a.u.
CCGACCTTAGAATTTCACGTGTAGGTACACTCAAAAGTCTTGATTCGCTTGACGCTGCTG,648 a.u.
ATATCCCGCGCTTTTCCCGTGGTGAATACTGTGTGTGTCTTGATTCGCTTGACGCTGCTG,133 a.u.
AAAGCGGTAATTTGACGAGTGGGTGCAGATATCTATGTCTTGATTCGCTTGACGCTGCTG,62.7 a.u.
GCGAGAATTTGCACACATGTGACGCTGAATGTATATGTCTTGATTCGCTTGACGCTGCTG,1390 a.u.
AATTTAACGTCGTATCACCTGCCATAACCGAGCAAGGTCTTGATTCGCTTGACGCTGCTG,166 a.u.
AAAAAAGACGTAAAGCACGTGAAATAAGGAGATTACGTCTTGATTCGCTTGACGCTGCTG,1000 a.u.
CAAACATAAAAGTCGTTCGTGATGGTGAGTTACTTAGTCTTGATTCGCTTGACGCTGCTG,84.7 a.u.
ACACTTATGTGGTTCACCGTGCCGATGCTGTGTTTAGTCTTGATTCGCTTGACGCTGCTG,57.3 a.u.
CGGGGTTAAGTTTTTCACGTGCAGTGCTTGCAGCAGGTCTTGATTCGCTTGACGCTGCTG,563 a.u.
TTCAATGCCAACAATAGCGTGCTTTCTTGTGAGTTTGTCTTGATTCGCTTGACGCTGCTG,75.3 a.u.
ACTGCTGTCTATAACGGCGTGACGGGTTTAGCATAAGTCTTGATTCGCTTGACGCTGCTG,144 a.u.
CATACCCAACCTTTTCACGTGCGTTAAGATATTTGTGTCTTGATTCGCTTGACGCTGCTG,963 a.u.
TCTTCTAGGAATTAGCACGTGTTTTGGTAACGCACCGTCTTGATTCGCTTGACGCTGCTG,3250 a.u.
CATCATCATCATCATCCATATCAGTAATAGGTTTTCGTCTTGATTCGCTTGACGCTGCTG,89.8 a.u.
CTAACGAAGGTTTGTACGGTGGGTGACAAGCCAAGTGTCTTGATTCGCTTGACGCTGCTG,65.5 a.u.
CTGTCGTCGTAGGTTCTCGTGGTGATGACCTTACTAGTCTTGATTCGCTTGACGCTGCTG,89.4 a.u.
CCAGTTGGTTAAGGCACCGTGCTAATATCGCGGGGAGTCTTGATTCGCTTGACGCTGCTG,58.1 a.u.
ATCTTTGAGTGTCGGCACGTGTTGGGTTACGAATTCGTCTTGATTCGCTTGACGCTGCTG,1840 a.u.
GTCCGATGTCCCCATCACGTTCATCACAACATTCCTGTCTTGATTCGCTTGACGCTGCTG,227 a.u.
GCAAGTCGACACAGCAACGTGTGGATAATGGATGAGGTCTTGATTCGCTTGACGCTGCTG,85.3 a.u.
CGGGGTTAAGTTTTCCACGTGTTTTGCTTGCAGCAGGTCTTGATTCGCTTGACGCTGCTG,598 a.u.
CGTCCTAGTGATTGGAGGGTGGGTGCCATGAGGAAGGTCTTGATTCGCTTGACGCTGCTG,89.8 a.u.
AGTGTGGTCTTGGCTCTCGTGCCAGCTGCCTCCGTAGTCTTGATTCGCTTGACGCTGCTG,65 a.u.

# Sample 3
# Target: Max-binding protein MNT, bHLH-zipper, MAX partner unstated (MNT, Homo sapiens, UniProt Q99583, residues 220-300)
# Method: protein-binding microarray
# Molecule type: double-stranded DNA, one strand shown
# Medium: in vitro
# Concentration: not given
# Notes: k-mer, scored over probes, only values ≥0.25
# Direction: higher = stronger binding
# Target sequence (chain): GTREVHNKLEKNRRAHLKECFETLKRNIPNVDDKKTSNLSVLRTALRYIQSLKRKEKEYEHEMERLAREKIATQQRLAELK
Oligonucleotide,E-score
CAATGTGG,0.302
CTCATGGC,0.323
ATGTGCGG,0.385
CATGGTAG,0.345
CCATGGAC,0.254
ACGTGCTG,0.46
GCATGGCC,0.401
ACGCGAGT,0.285
ACGCATGC,0.444
CACCACAC,0.287
CACGTTCA,0.315
CGTGCTTA,0.376
CACGCTCG,0.406
CCACGGGG,0.354
ACACATGG,0.468
AGCGTGTC,0.366
ATCGCATG,0.347
GAACGCAC,0.272
ACATGTAT,0.367
CCCGTGCG,0.344
CGCACTCC,0.26
ACGCTGCT,0.252

# Sample 4
# Target: RNA binding protein fox-1 homolog 2, RRM domain, GST-SBP tag (RBFOX2, Homo sapiens, UniProt O43251-10, residues 100-194)
# Method: RNA Bind-n-Seq
# Molecule type: RNA
# Medium: in vitro
# Concentration: 365 nM
# Notes: natural RNA segment, single round, ends assumed
# Relative to: no-protein control
# Direction: higher = stronger binding
# Target sequence (chain): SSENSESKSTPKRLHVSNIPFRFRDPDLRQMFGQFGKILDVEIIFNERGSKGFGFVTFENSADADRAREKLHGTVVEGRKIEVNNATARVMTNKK
Oligonucleotide,RBNS enrichment (R)
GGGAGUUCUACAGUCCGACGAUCCUCAUAAACCAUCUCUGCAUCACCAUGAACCCAGACUAGCUGUGGUGCCAGAAACCUGAACUUAAACAACAGUUCUCAGUGCAAACUGUCCUAGGAAAAUUUAAAGAUGAUGGAAUUCUCGGGUGCCAA,0.521
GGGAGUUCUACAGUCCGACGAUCGUACCUGGUUUUAGCCACAGCCACCUCCUUGUAUGUUACCUUUCAGCUCUGGCCAAGAGUGGGACAGGGUUUUAACCACAAAUAGGAGCAGCAUGCAAUUCCUAGUGACUUGGAAUUCUCGGGUGCCAA,4.06
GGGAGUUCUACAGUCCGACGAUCGAGUAUGGGCUGAGCAGGGGGAUUGAAUGUGACUGUUAAAAACACUCAUGUACUGUCCAAAAGUGCCAGAAUGACUCUUCUGCGCAUUCUCCUUUAAGAGCUGCUUGGUUUGGAAUUCUCGGGUGCCAA,0.292
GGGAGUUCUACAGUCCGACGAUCUUUUGUAACCUUUAGUGGGUUCCACGGUUGAGAUUUAGCACUGGAGCCAGGCAUGGUGGUAUACUCCAUUAAUCACUCAGGAGGCAGAGGCAGGUGGAUCUCUGUGAGUUUGGAAUUCUCGGGUGCCAA,1.94
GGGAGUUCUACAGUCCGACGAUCUCAUUGAAAUAAAAUACAGAGUCAAAUCGCUAUUGUUGUUUUAAUGAUCUGUUUUUAGCUGGAUGGUCUUUAUUACAAAGUAUUAGAUUUUUCUUCUAUUUAACGGAAAAUGGAAUUCUCGGGUGCCAA,0.346
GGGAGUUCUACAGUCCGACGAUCCUCUUGCACUGUGUCCAUCACCACUUGGUGAGGACUCUUAAACUCUCUCCUCAUGUGCUUAUACCCUGUUCCAUGAAAAUAAAUGAGACCAUGAUUUUCCUUCAUGAUGUUGGAAUUCUCGGGUGCCAA,0.374
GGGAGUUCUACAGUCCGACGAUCAGAGCUAGACGGGCUUCUGCAUGUGAAAUGCUGUAUUCCAUAGGAGUUAAAAGUGCUGACUGAGCAGUCUGACCCCCACGUGGGCACCUGCACUACCAGUUGUUAGAGGAUGGAAUUCUCGGGUGCCAA,3.54
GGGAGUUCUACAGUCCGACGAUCGCAUGGAACUUUUUCCGUUAUCACCCAGGCCUGAUUCACUGGCCUGGCGGAGAUGCUUCUAAGGCAUGGUCGGGGGAGAGGGCCAACAACUGUCCCUCCUUGAGCACCAGUGGAAUUCUCGGGUGCCAA,0.273
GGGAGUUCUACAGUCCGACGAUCUAGACACCCCCAGAAUGCCUGGCGCUCUGCAGAGCACAGUCUGAGCUGCUCUAAGAAGGGGUCUCCUUUACCCUAAAGGCAGCUGGGCAGGGACAGGUGGGAGAAUGGGUUGGAAUUCUCGGGUGCCAA,1.42
